Assay results pooled from the literature.
Lines come from different studies, so protocols differ. ± gives the spread as reported.
Organism: Klebsiella pneumoniae

SMILES | test | system | setting | MIC
COc1ccc2ccc3c(c2c1)C=[N+]1C2CCCCC2[N+]2=Cc4ccc(-c5ccccc5)cc4[O][Au-]21[O]3.F[P-](F)(F)(F)(F)F (centres unmarked) | bacterial growth, broth microdilution | carbapenem-resistant | 24 h | > 20 µM
CN[C@H](CC(C)C)C(=O)N[C@H]1C(=O)N[C@@H](CC(N)=O)C(=O)N[C@H]2C(=O)N[C@H]3C(=O)N[C@H](C(=O)N[C@H](C(=O)NCc4cn(CCOCCOCCOCCC(=O)N[C@H](C(=O)N[C@@H](CCN)C(=O)N[C@H]5CCNC(=O)[C@H]([C@@H](C)O)NC(=O)[C@H](CCN)NC(=O)[C@H](CCN)NC(=O)[C@H](CC(C)C)NC(=O)[C@@H](CC(C)C)NC(=O)[C@H](CCN)NC5=O)[C@@H](C)O)nn4)c4cc(O)cc(O)c4-c4cc3ccc4O)[C@H](O)c3ccc(c(Cl)c3)Oc3cc2cc(c3O[C@@H]2O[C@H](CO)[C@@H](O)[C@H](O)[C@H]2O[C@H]2C[C@](C)(N)[C@H](O)[C@H](C)O2)Oc2ccc(cc2Cl)[C@H]1O | broth microdilution | ATCC 27736 | 18 to 20 h, 37 °C, 0.002% polysorbate 80 | 64 µg/mL
COc1ccc2ccc3c(c2c1)C=[N+]1C2CCCCC2[N+]2=Cc4ccc(C)cc4[O][Au-]21[O]3.F[P-](F)(F)(F)(F)F (centres unmarked) | bacterial growth, broth microdilution | carbapenem-resistant | 24 h | > 20 µM
NCCCC[C@@H]1NC(=O)[C@@H](CCCCN)NC(=O)[C@H](CCCCN)NC(=O)[C@@H](CCCCN)NC(=O)[C@H](Cc2c[nH]c3ccccc23)NC(=O)[C@@H](Cc2c[nH]c3ccccc23)NC(=O)[C@@H](N)CSCc2ccc(cc2)CSC[C@@H](C(N)=O)NC(=O)[C@@H](Cc2c[nH]c3ccccc23)NC(=O)[C@H](Cc2c[nH]c3ccccc23)NC(=O)[C@@H](CCCCN)NC1=O | – | – | – | > 64 µg/mL
CC(C)C[C@H](NC(=O)[C@H](Cc1ccc(O)cc1)NC(=O)[C@@H]1CCCN1C(=O)[C@H](CCCNC(=N)N)NC(=O)[C@@H]1CCCN1C(=O)[C@H](CCCCN)NC(=O)[C@H](CC(=O)O)NC(=O)[C@@H]1CCCN1C(=O)[C@H](CCCNC(=N)N)NC(=O)C1(N)CCCCC1)C(=O)N1CCC[C@H]1C(=O)N[C@@H](CCCNC(=N)N)C(=O)N1CCC[C@H]1C(=O)N[C@@H](CCCNC(=N)N)C(=O)N1CCC[C@H]1C(=O)N1CCC[C@H]1C(=O)N[C@@H](CCCNC(=N)N)C(=O)N1CCC[C@H]1C(=O)N[C@H](C(=O)N[C@@H](CCCNC(=N)N)C(=O)N[C@@H](CSCc1cccc(CSC[C@H](NC(=O)[C@H](CCCNC(=N)N)NC(=O)[C@@H](NC(=O)[C@@H]2CCCN2C(=O)[C@H](CCCNC(=N)N)NC(=O)[C@@H]2CCCN2C(=O)[C@@H]2CCCN2C(=O)[C@H](CCCNC(=N)N)NC(=O)[C@@H]2CCCN2C(=O)[C@H](CCCNC(=N)N)NC(=O)[C@@H]2CCCN2C(=O)[C@H](CC(C)C)NC(=O)[C@H](Cc2ccc(O)cc2)NC(=O)[C@@H]2CCCN2C(=O)[C@H](CCCNC(=N)N)NC(=O)[C@@H]2CCCN2C(=O)[C@H](CCCCN)NC(=O)[C@H](CC(=O)O)NC(=O)[C@@H]2CCCN2C(=O)[C@H](CCCNC(=N)N)NC(=O)C2(N)CCCCC2)C(C)C)C(=O)NN)c1)C(=O)NN)C(C)C | bacterial growth | ATCC 13883, 100% Mueller-Hinton broth | 90 min, 37 °C, strain ATCC 13883 | 3.6 ± 0.7 µg/mL
CC[C@H](C)[C@H](NC(=O)[C@@H](CCCNC(=N)N)NC(=O)[C@H](CCCNC(=N)N)NC(=O)[C@H](CCCN)NC(=O)[C@H](Cc1c[nH]c2ccccc12)NC(=O)[C@H](CCCNC(=N)N)NC(=O)[C@@H]1CCCN1C(=O)[C@H](CCCNC(=N)N)NC(=O)[C@@H]1CCCN1C(=O)[C@H](CC(C)C)NC(=O)[C@H](Cc1ccc(O)cc1)NC(=O)[C@@H]1CCCN1C(=O)[C@@H]1CCCN1C(=O)[C@H](CCCCN)NC(=O)[C@H](CC(=O)O)NC(=O)[C@@H](N)C(C)C)C(=O)N[C@@H](Cc1ccc(O)cc1)C(=O)N[C@@H](CC(N)=O)C(=O)N[C@H](CCCNC(=N)N)C(N)=O | broth microdilution | DSM 681 | 18 h | 4 µg/mL
CC[C@H](C)[C@H](NC(=O)[C@H](C)NC(=O)[C@@H](NC(=O)[C@H](CC(=O)O)NC(=O)[C@H](CCCCN)NC(=O)[C@H](CO)NC(=O)[C@@H](NC(=O)[C@H](CC(N)=O)NC(=O)[C@H](C)NC(=O)[C@@H](NC(=O)[C@H](CCC(=O)O)NC(=O)[C@H](CCCCN)NC(=O)[C@@H](NC(=O)[C@@H](NC(=O)[C@H](Cc1c[nH]cn1)NC(=O)[C@H](CCCCN)NC(=O)[C@@H](NC(=O)[C@H](CCCCN)NC(=O)[C@H](CCCCN)NC(=O)[C@@H](NC(=O)[C@H](CC(C)C)NC(=O)[C@H](CCCCN)NC(=O)[C@H](CC(N)=O)NC(=O)[C@H](Cc1ccccc1)NC(=O)[C@H](CCCNC(=N)N)NC(=O)[C@H](CCCCN)NC(=O)[C@H](CCCNC(=N)N)NC(=O)[C@H](Cc1ccccc1)NC(=O)CN)C(C)C)C(C)C)[C@@H](C)O)[C@@H](C)CC)[C@@H](C)O)C(C)C)C(C)C)C(=O)N[C@H](C(=O)N[C@@H](C)C(=O)NCC(=O)N[C@@H](CO)C(=O)NCC(=O)N[C@H](C(=O)N[C@@H](C)C(=O)N[C@H](C(=O)NCC(=O)N[C@@H](C)C(=O)N[C@@H](C)C(=O)N[C@@H](CCSC)C(N)=O)C(C)C)C(C)C)C(C)C | – | isolate RKI 19/16, CAMHB | – | 8 µg/mL
COc1ccc2ccc3c(c2c1)C=[N+]1C2CCCCC2[N+]2=Cc4c(OC)cccc4[O][Au-]21[O]3.F[P-](F)(F)(F)(F)F (centres unmarked) | bacterial growth, broth microdilution | carbapenem-resistant clinical isolate | 24 h | > 20 µM
c1ccc(CN2CCOCCOCCN(CCCCCCCCCCCCCCN3CCOCCOCCN(CCCCCCCCCCCCCCN4CCOCCOCCN(Cc5ccccc5)CCOCCOCC4)CCOCCOCC3)CCOCCOCC2)cc1 | – | KPC-2 | – | 24 µM
COc1ccc2ccc3c(c2c1)C=[N+]1C2CCCCC2[N+]2=Cc4ccc(OCCN5CCCCC5)cc4[O][Au-]21[O]3.F[P-](F)(F)(F)(F)F (centres unmarked) | bacterial growth, broth microdilution | carbapenem-resistant | 24 h | 10 µM
CC(C)[C@H](NC(=O)[C@H](CCCNC(=N)N)NC(=O)[C@H](CCCNC(=N)N)NC(=O)[C@@H](NC(=O)[C@H](C)NC(=O)[C@H](CC(N)=O)NC(=O)[C@H](CCCNC(=N)N)NC(=O)[C@@H](NC(=O)[C@H](CCCNC(=N)N)NC(=O)[C@H](CCCNC(=N)N)NC(=O)[C@@H](NC(=O)[C@@H](NC(=O)[C@H](CCCNC(=N)N)NC(=O)[C@H](CCCNC(=N)N)NC(=O)[C@H](Cc1c[nH]c2ccccc12)NC(=O)[C@H](Cc1c[nH]c2ccccc12)NC(=O)CN)[C@@H](C)O)C(C)C)C(C)C)C(C)C)C(=O)O | – | clinical strain | 18 h, 37 °C | 128 µg/mL
C[C@@](O)(C(F)F)[C@H](NC(=O)c1ccc(C#CC#CC2CC2)cc1)C(=O)NO | broth microdilution | 10031, CAMHB | – | 0.0026 µg/mL
COc1ccc2c(c1)C=[N+]1C3CCCCC3[N+]3=Cc4c(ccc5ccc(OC)cc45)[O][Au-]13[O]2.F[P-](F)(F)(F)(F)F (centres unmarked) | bacterial growth, broth microdilution | carbapenem-resistant clinical isolate | 24 h | > 20 µM
CC(C)[C@@H]1NC(=O)[C@@H]2CCCN2C(=O)[C@@H](C)NC(=O)[C@H](CO)NC(=O)[C@H](C)NC(=O)[C@H](C(C)(C)C)NC(=O)[C@H](CCO)NC(=O)[C@H](Cc2c[nH]c3ccccc23)NC(=O)[C@H](CCO)NC(=O)[C@@H](CCN)NC(=O)[C@H](CCC(N)=O)NC(=O)[C@H](CCN)NC(=O)[C@H](Cc2ccc(O)cc2)NC(=O)[C@H]([C@@H](C)O)NC1=O | broth microdilution | NDM-1, CAMHB with polysorbate-80 | 16 h | > 64 µg/mL
Cc1cc(N)c2cc(NC(=O)c3ccc4c(-c5ccccc5O)cccc4c3)ccc2n1 | – | ATCC 13883 | – | 100 µM
CCCCCCCCCCCCCC(=O)N[C@H](CCN)C(=O)N[C@H](C(=O)N[C@@H](CCN)C(=O)N[C@@H](CC(C)C)C(=O)N[C@@H](CCN)C(=O)N[C@H](Cc1ccccc1)C(=O)N[C@@H](CC(C)C)C(=O)N[C@@H](CCN)C(=O)N[C@H](Cc1ccc(O)cc1)C(=O)N[C@H](C(=O)N[C@@H](CC(=O)O)C(=O)O)C(C)C)[C@@H](C)O | broth microdilution | BNCC 186113 | – | 4 µg/mL
CC(C)C[C@H](NC(=O)[C@H](CCCCN)NC(=O)[C@H](CCCCNC(=O)[C@H](CC(C)C)NC(=O)[C@H](CCCCN)NC(=O)[C@H](CCCCNC(=O)[C@H](CC(C)C)NC(=O)[C@H](CCCCN)NC(=O)[C@H](CCCCNC(=O)[C@H](CC(C)C)NC(=O)[C@@H](N)CCCCN)NC(=O)[C@H](CC(C)C)NC(=O)[C@@H](N)CCCCN)NC(=O)[C@H](CC(C)C)NC(=O)[C@H](CCCCN)NC(=O)[C@H](CCCCNC(=O)[C@H](CC(C)C)NC(=O)[C@@H](N)CCCCN)NC(=O)[C@H](CC(C)C)NC(=O)[C@@H](N)CCCCN)NC(=O)[C@H](CC(C)C)NC(=O)[C@H](CCCCN)NC(=O)[C@H](CCCCNC(=O)[C@H](CC(C)C)NC(=O)[C@H](CCCCN)NC(=O)[C@H](CCCCNC(=O)[C@H](CC(C)C)NC(=O)[C@@H](N)CCCCN)NC(=O)[C@H](CC(C)C)NC(=O)[C@@H](N)CCCCN)NC(=O)[C@H](CC(C)C)NC(=O)[C@H](CCCCN)NC(=O)[C@H](CCCCNC(=O)[C@H](CC(C)C)NC(=O)[C@@H](N)CCCCN)NC(=O)[C@H](CC(C)C)NC(=O)[C@@H](N)CCCCN)C(N)=O | broth microdilution | NCTC 418 | 37 °C | > 64 µg/mL

A few entries again:
SMILES | test | system | setting | MIC
CC(C)[C@@H]1NC(=O)[C@@H]2CCCN2C(=O)[C@@H](C)NC(=O)[C@H](CO)NC(=O)[C@H](C)NC(=O)[C@H](C(C)(C)C)NC(=O)[C@H](CCO)NC(=O)[C@H](Cc2c[nH]c3ccccc23)NC(=O)[C@H](CCO)NC(=O)[C@@H](CCN)NC(=O)[C@H](CCC(N)=O)NC(=O)[C@H](CCN)NC(=O)[C@H](Cc2ccc(O)cc2)NC(=O)[C@H]([C@@H](C)O)NC1=O | broth microdilution | NDM-1, CAMHB with polysorbate-80 | 16 h | > 64 µg/mL
Cc1cc(N)c2cc(NC(=O)c3ccc4c(-c5ccccc5O)cccc4c3)ccc2n1 | – | ATCC 13883 | – | 100 µM
